# Published values gathered from unrelated publications.
# A part holds a random share of what one study measured. Substitutions count along the parent as printed.
# Sequence of UniProt P93022 (whole entry, looked up): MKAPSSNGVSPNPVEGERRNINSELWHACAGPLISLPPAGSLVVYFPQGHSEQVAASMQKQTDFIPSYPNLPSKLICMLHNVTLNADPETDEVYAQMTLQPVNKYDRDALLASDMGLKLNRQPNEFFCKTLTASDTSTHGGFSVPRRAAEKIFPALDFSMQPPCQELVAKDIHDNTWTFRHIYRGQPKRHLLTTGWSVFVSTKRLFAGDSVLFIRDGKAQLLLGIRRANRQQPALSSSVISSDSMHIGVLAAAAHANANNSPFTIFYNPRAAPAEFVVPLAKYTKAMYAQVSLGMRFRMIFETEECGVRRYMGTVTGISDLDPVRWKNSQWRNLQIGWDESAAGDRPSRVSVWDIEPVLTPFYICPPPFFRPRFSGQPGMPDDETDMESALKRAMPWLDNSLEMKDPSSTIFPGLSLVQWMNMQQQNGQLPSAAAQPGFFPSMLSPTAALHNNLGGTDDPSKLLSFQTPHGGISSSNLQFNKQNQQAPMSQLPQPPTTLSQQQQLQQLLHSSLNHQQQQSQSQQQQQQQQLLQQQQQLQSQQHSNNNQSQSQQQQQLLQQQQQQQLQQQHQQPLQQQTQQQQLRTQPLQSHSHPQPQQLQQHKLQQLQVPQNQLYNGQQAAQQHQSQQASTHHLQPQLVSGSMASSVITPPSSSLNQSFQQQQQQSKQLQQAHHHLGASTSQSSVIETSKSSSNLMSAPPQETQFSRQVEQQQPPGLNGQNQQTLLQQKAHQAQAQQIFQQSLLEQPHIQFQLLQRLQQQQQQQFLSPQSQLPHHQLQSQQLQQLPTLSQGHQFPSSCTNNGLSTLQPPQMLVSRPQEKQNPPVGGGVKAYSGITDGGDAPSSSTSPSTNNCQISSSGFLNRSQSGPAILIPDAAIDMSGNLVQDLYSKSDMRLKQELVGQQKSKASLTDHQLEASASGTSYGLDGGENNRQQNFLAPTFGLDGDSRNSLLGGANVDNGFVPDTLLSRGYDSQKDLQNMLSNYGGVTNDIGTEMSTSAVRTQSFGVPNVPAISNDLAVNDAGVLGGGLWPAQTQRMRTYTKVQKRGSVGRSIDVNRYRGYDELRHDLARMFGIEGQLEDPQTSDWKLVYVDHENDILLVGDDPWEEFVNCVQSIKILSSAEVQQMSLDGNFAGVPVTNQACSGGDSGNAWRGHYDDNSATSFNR
# Sequence of UniProt Q8H174 (whole entry, looked up): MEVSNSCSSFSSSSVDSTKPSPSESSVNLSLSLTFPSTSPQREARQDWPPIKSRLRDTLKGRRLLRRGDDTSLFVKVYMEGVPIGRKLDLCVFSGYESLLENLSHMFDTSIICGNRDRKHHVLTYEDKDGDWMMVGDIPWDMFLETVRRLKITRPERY
# Sequence of UniProt Q9ZSY8 (whole entry, looked up): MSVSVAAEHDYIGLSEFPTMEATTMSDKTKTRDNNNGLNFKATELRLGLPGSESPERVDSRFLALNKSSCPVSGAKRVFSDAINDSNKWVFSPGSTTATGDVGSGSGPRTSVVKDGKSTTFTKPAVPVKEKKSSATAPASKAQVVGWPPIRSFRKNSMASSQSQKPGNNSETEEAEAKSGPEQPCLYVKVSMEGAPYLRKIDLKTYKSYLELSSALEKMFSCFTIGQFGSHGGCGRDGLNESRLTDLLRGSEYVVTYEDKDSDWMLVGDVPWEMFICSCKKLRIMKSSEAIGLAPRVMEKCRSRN
# Sequence of UniProt Q8RYC8 (whole entry, looked up): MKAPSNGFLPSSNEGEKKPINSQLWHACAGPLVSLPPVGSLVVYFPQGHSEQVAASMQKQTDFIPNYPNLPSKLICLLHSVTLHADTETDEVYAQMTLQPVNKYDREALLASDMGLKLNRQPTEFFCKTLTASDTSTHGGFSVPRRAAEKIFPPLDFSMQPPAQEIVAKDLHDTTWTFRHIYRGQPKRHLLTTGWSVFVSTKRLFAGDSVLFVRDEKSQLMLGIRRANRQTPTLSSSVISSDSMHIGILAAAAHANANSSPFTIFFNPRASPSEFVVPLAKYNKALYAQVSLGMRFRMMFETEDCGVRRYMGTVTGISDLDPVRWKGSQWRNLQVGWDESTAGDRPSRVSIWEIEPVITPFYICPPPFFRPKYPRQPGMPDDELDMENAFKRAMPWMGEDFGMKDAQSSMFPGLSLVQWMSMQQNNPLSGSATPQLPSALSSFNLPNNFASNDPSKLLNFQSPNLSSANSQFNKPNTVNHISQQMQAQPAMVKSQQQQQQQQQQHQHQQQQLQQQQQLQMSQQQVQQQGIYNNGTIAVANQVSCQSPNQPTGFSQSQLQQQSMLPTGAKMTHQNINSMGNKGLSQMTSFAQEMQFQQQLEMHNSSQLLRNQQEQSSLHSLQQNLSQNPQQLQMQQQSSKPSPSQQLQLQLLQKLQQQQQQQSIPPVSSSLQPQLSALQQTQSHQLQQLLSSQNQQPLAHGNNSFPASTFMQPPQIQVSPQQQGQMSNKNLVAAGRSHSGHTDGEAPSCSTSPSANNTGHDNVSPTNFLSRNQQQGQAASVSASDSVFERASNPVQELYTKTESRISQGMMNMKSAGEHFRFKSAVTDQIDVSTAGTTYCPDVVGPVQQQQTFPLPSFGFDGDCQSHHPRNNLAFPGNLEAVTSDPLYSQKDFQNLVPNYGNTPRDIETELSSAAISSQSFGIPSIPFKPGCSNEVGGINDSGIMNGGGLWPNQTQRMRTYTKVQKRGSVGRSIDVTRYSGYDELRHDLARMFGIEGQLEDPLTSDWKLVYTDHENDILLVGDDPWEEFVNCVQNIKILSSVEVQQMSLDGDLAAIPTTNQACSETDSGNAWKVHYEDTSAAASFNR
# Sequence of UniProt Q9LQE8 (whole entry, looked up): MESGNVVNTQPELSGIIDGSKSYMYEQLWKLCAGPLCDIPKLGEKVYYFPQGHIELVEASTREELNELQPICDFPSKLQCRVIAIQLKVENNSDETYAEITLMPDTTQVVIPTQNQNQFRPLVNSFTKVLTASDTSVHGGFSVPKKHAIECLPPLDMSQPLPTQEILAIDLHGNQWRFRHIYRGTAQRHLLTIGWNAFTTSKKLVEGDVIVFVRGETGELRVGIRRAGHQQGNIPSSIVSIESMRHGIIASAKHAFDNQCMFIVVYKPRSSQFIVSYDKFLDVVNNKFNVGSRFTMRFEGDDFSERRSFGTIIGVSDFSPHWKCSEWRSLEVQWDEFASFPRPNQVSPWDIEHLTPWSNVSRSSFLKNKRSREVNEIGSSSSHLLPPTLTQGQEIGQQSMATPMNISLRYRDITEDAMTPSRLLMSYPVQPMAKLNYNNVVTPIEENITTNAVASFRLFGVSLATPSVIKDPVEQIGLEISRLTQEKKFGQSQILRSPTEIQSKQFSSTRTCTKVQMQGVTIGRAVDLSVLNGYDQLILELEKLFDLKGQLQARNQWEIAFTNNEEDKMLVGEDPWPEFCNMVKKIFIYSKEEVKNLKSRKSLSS
# Sequence of UniProt O24407 (whole entry, looked up): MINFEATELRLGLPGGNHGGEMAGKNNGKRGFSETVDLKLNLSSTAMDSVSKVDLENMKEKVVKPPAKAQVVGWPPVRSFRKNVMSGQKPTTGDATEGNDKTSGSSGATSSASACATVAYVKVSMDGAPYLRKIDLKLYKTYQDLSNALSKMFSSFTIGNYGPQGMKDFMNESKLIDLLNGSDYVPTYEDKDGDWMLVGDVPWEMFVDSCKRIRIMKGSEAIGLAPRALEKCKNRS
# Sequence of UniProt O24410 (whole entry, looked up): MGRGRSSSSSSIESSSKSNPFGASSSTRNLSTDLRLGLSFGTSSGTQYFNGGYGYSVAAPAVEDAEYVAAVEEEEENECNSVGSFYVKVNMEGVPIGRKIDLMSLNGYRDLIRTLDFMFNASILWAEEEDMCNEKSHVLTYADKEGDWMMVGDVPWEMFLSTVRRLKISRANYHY

# Sample 1 — target: CCNE1, cyclin fold, Cln2 fusion (human); method: yeast growth competition, sequencing; sample: yeast; setting: weak parent motif; reference: not given; direction: higher = stronger binding
# Starting sequence: CUX1 docking peptide (human); SRIRRELFIEEIQ
Change,normalised enrichment score
I3A,1.99
R5K F8L,0.253
I9A,-0.00301
Q13A,1.17
E11A,0.884
E6A,0.944
F8A,0.533
E10A,0.609
F8L,0.33
R5A L7A,-0.179

# Sample 2 — Sequence: B1 (IAA13); method: two-hybrid; direction: higher = firmer interaction
# B1: IAA13 (Arabidopsis thaliana, UniProt Q38831); chain MITELEMGKGESELELGLGLSLGGGTAAKIGKSGGGGAWGERGRLLTAKDFPSVGSKRAADSASHAGSSPPRSSSQVVGWPPIGSHRMNSLVNNQATKSAREEEEAGKKKVKDDEPKDVTKKVNGKVQVGFIKVNMDGVAIGRKVDLNAHSSYENLAQTLEDMFFRTNPGTVGLTSQFTKPLRLLDGSSEFVLTYEDKEGDWMLVGDVPWRMFINSVKRLRVMKTSEANGLAARNQEPNERQRKQPV
partner,conditions,scale,positive tests
"ARF19 948-1086 (Arabidopsis thaliana, UniProt Q8RYC8)",,reference: out of 3 tests,2
"IAA20 (Arabidopsis thaliana, UniProt O24410)",weak activation fusion,reference: out of 4 tests,2
"IAA27 (Arabidopsis thaliana, UniProt Q9ZSY8)",,reference: out of 4 tests,2
"IAA16 (Arabidopsis thaliana, UniProt O24407)",,reference: out of 4 tests,2
"IAA31 (Arabidopsis thaliana, UniProt Q8H174)",,reference: out of 2 tests,0
"ARF7 1030-1164 (Arabidopsis thaliana, UniProt P93022)",,reference: out of 4 tests,3
"ARF14 497-605 (Arabidopsis thaliana, UniProt Q9LQE8)",,reference: out of 4 tests,0

# Sample 3 — method: DHFR PCA, deep sequencing; sample: yeast; together with: (+)-ABA 0.11 µM; reference: wild-type fitted maximum; direction: higher = stronger binding
# Target: ABI1, truncated, D143A, DHFR fusion (Arabidopsis thaliana)
# Setting: methotrexate growth selection, single substitutions
# Starting sequence: PYL1, truncated, DHFR fusion (Arabidopsis thaliana); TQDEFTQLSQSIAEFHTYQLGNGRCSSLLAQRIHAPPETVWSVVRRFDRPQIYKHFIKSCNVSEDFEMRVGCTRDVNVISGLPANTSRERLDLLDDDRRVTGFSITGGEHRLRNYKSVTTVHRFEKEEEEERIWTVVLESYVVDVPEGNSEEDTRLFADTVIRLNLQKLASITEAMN
Change,relative binding score
R49F,-4.56%
K116G,0.618%
Y18I,0.00227%
F5V,29%
G81N,31.7%
L93T,5.1%
T86I,41.1%
S171W,11.7%
E129C,34.7%
H122C,-4.49%
H110L,14.7%
S59V,0.794%
R132Y,15.9%
R69W,-4.03%
D3G,13.9%
F47R,-2.52%
V118P,-3.68%
E64F,-9.01%
Q10T,31.7%

# Sample 4 — method: RNA Bind-n-Seq; form: RNA; sample: in vitro; concentration: 365 nM; reference: no-protein control; direction: higher = stronger binding
# Target: RNA binding protein fox-1 homolog 2, RRM domain, GST-SBP tag (RBFOX2, Homo sapiens, UniProt O43251-10, residues 100-194)
# Setting: natural RNA segment, single round, ends assumed
# Shared flanks, not repeated: GGGAGUUCUACAGUCCGACGAUC … UGGAAUUCUCGGGUGCCAA
# Target sequence (chain): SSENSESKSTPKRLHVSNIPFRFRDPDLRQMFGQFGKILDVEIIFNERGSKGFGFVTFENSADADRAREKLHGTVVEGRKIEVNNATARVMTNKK
Strand,RBNS enrichment (R)
UCAGUAUUGUAGAUACUAAACCAGUUUUCCCACAUGAAAGGCAGGAAGAGUUUUGAUUCUGUCCUUUUUUACUUGACAGUUUUACUAUGACACUAGACUCAGUAGAUUUU,0.886
GAGUUUAAAGUCUUAAUCUAUGCAUUCAGAGAAAUAUUUUUAUAUGCUUUGUGUAAUUUAUAACAAGGAUUUUUUUUUUAGCUUUGUUAACUGUGAAUUCACCCCUCCUC,0.524
GCAAGCUCCACCUCCCAGGUUCACGCCAUUCUCCUGCCUCAGCCUCCCUAGUAGUUGGGACUACAGGCGCCCGCCACCAUGCUCAGCUAAUUUUUUGUAUUUUUAGUAGA,0.766
UUCUCUGUGUCCUCACUGUGGGGCUGAGGUCUCAGGGGCUCCCCUCUGCUAAGGUUCCUUCCCUUUGUCUCUGGAAACCCAACCCCACAAGGACAGAGUGGUGAGAACUC,0.436
UAGUACUAAAAUACUGUAGAAUUUUAGCAUUUUUAUUUUGCACUUUGUGUGGAUUGAGGUGUUCAGAAAUACCAACCAUAAAAAUGUAAUCUAGUUGGCAAAGGUGUGCG,1.24
UGGUAAGAGUCUUUAUUAAAGUUUUAAGUGUCUAAAGGGACUGUCCACGCCUGUACAUUUCAGAUGGCAGCGAUUUGGGUCCUUGGGGCUUUUGGCCCUUGGCCAGAAGU,0.367
UAAGAAUCCUGCUGCUCUGGGGGAGGCGGAAGGAGAGCUGGAAAGUCUGGAGUAUCGCUCCGUUCCCUGGCAGAAGGUUCCAGCCAGGAGGAUGUGCUGAAGAUGGUCUG,1.26
ACUAAAGUGCCCGGUUUUAGCCACAGACAACUGCUUAGAUGUCACCUCUUGGCUGACCAAAGCUGGGACAGGGCUUUAACCAGACAUAGGAGCAGUGUGCAAUUCCUGAU,0.342
UGGAAAUGAGGUCUUAGGCUCUUCUUUAAAUGUGUGUACUUUUAUCUGUGAGAGACUGACUAUAGCAGAAGCGGAUUCAAAGAAGACAGACCUUGACCAAAGAUGCUGAA,0.464
GCCCAAGCUAUCUCAACUACAGGAGCGGAGGGGGACGAAUGAUUGUGAACACAAAGUCUGACUUGAAGAUUCUCUGCAAUGAAGAGAAUUCAUUCAUUCACUCUGCUCAA,0.271
GCCCCUCCCACCUGCACAUGUCACACUGACCACAUCUGUAGACAUCUUGAGUUGUAGCUGCAGACGGGGACCAGUGGCUCCCAUUUUCAUUUUAGCCAUUUUGUCGCCUG,0.676
GUGAGUACCACAGAAACGCCUGAGAGUCACUUACCCGGCCACUGCUUGGAAGGUUUCCCUCCGGGGAAUGCCUCCCUGGAAUGUUCCAGAGACGGAACAUUCUCUAGAGA,0.212

# Sample 5 — method: protein binding microarray; form: double-stranded DNA, one strand shown; sample: in vitro; concentration: not given; reference: not given; direction: higher = stronger binding
# Target: Histone acetyltransferase KAT6A, winged helix 2, GST fusion (KAT6A, Homo sapiens, UniProt Q92794, residues 85-181)
# Setting: 8-mer, flanks averaged, mean of 2 arrays, mostly near background
# Target sequence (chain): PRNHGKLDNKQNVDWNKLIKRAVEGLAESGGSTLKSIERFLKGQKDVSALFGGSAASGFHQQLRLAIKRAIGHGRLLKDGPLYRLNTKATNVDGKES
Strand,E-score
CGCGGGTA,0.0289
GGCACAGA,-0.0601
CGTGTTAG,-0.0872
GCGGGTGA,0.182
ACGCCGAA,0.121
CTACCTCA,-0.0931
CCGACCTC,0.193
CAGATAAG,0.00907
AATCGTCT,-0.193
CACTATAC,0.0289
GCACCCAA,0.195
GTAAACAA,-0.055
GTAGAGAC,0.0382
AAGGGAAG,0.00363
AACATCAA,-0.0364
CCTTAATA,-0.0258
CATACTCC,-0.0777
AATCCAGT,-0.0653
ACGCCAGG,0.252
AAAACTGA,0.0165
CCCGCTGC,0.0781
ACCCGTCA,-0.0851
CCGTTTTC,0.0118
CATTTTGC,0.0666
ACTCCCTA,-0.00366

# Repeated from above (sample 1):
Change,normalised enrichment score
R5A L7A,-0.179
E6A,0.944
I9A,-0.00301
F8A,0.533
R5K F8L,0.253
I3A,1.99
E11A,0.884
F8L,0.33
Q13A,1.17
E10A,0.609
